{"data": "Experimental data gathered from unrelated publications", "note": "Lines come from different studies, so protocols differ. ± gives the spread as reported."}
{"Substance": "CC1(C)CCCC(C)(C2CCC3(C)C2C(O)CC2C4(C)CCC(OC(=O)NC5CCCCC5)C(C)(C)C4C(OC(=O)NC4CCCCC4)CC23C)O1 (centres unmarked)", "cell line": "Hep3B", "test": "HRE reporter gene, inhibitor", "conditions": "24 h, hypoxia", "IC50": "14.8 µM"}
{"Substance": "O=c1cc(-c2ccc(O)cc2)oc2cc(O)cc(O)c12", "cell line": "U-937", "test": "cell growth or viability, ATP luminescence", "conditions": "24 h", "IC50": "160 µM"}
{"Substance": "Cc1ccc(NCSc2nnc(-c3nn(CNc4ccc(C)cc4)c(=O)c4ccccc34)o2)cc1", "cell line": "WI-38", "test": "cell growth or viability, MTT", "conditions": "48 h", "IC50": "62.8 µM"}
{"Substance": "Oc1cccc(CCc2ccccc2)c1", "cell line": "HL-60", "test": "reactive oxygen species, inhibitor, fluorescence", "IC50": "0.012 µg/mL"}
{"Substance": "CC(NCCc1ccc(O)cc1)C(O)c1ccc(O)cc1 (centres unmarked)", "cell line": "THP-1", "test": "TNF-alpha production, inhibitor", "conditions": "with: LPS", "IC50": "3.5 µM"}
{"Substance": "C=CC(=O)N1CCC[C@@H](n2nc(-c3ccc(Oc4ccccc4)cc3)c3c(N)ncnc32)C1", "cell line": "SU-DHL-6", "test": "cell growth or viability, CCK-8", "conditions": "72 h", "IC50": "2.43 µM"}
{"Substance": "O=C1Nc2ccc(OC(F)(F)F)cc2C1n1nc(-c2c(O)c3ccccc3oc2=O)cc1-c1ccc(F)cc1 (centres unmarked)", "cell line": "A-375", "test": "cell growth or viability, SRB", "conditions": "72 h", "IC50": "0.96 µM"}
{"Substance": "Cc1ccc(C=Nn2c(-c3ccc(NC(=O)c4cccnc4)cc3)n[nH]c2=S)cc1", "cell line": "RAW264.7", "test": "reactive oxygen species, inhibitor, fluorescence", "conditions": "LPS-stimulated", "IC50": "0.49 µM"}
{"Substance": "O=c1[nH]c2ccccc2nc1/C=C/c1ccc(F)cc1", "cell line": "HeLa 229", "test": "cell growth or viability, MTT", "conditions": "72 h", "IC50": "> 50 µM"}
{"Substance": "Nn1c(SCC(=O)Nc2cccc(Br)c2)nnc1-c1ccc(NC(=O)c2cccnc2)cc1", "cell line": "RAW264.7", "test": "IL-6 release, inhibitor, ELISA", "conditions": "LPS-stimulated", "IC50": "5.63 µM"}
{"Substance": "CCCCCCCC/C=C\\CCCCCCCC(=O)OC[C@H](COP(=O)([O-])OCC[N+](C)(C)C)OC(=O)Cc1c(C)n(C(=O)c2ccc(Cl)cc2)c2ccc(OC)cc12", "cell line": "MCF-10A", "test": "cell growth or viability, SRB", "conditions": "72 h", "IC50": "102 µM"}
{"Substance": "O=C1Nc2ccc(Cl)cc2C1n1nc(-c2c(O)c3ccccc3oc2=O)cc1-c1ccc(F)cc1 (centres unmarked)", "cell line": "A-375", "test": "cell growth or viability, SRB", "conditions": "72 h", "IC50": "4.3 µM"}
{"Substance": "COC1=C(OC)[C@H](O)[C@H](C/C=C(\\C)CC/C=C(\\C)CCC=C(C)C)[C@@H](C)C1=O", "cell line": "LNCaP", "test": "cell growth or viability, MTS", "conditions": "72 h", "IC50": "22 µM"}
{"Substance": "CC(C)C[C@H]1NC(=O)[C@H](CC(=O)O)NC(=O)CNC(=O)[C@H](CCCNC(=N)N)NC(=O)[C@H](C)NC1=O", "cell line": "WM-115", "test": "WM-115 cell adhesion, inhibitor", "conditions": "1 h, with: immobilized CagL^E90A", "IC50": "0.88 µM"}
{"Substance": "CC1COc2c(N3CCN(C)CC3)c(F)cc3c(=O)c(C(=O)[O-])cn1c23.Cc1ccc(C(C)C)cc1.[Cl-].[Ru+2] (centres unmarked)", "cell line": "SW480", "test": "cell growth or viability, MTT", "conditions": "96 h", "IC50": "225 µM"}
{"Substance": "O=c1c(/C=C/c2ccccc2Cl)nc2ccccc2n1Cc1ccccc1", "cell line": "HeLa 229", "test": "cell growth or viability, MTT", "conditions": "72 h", "IC50": "> 50 µM"}
{"Substance": "CC1(C)c2ccccc2N(Cc2ccc(C(=O)NO)cc2)C1c1ccncc1 (racemic)", "cell line": "IPF patient basal cells", "test": "bronchosphere formation, 3D organoid and MTT", "conditions": "14 days", "IC50": "0.00461 µM"}
{"Substance": "C[C@]12CC[C@@H]3c4ccc(O)cc4C[C@@H](CCCCCCCCC[S+]([O-])CCCC(F)(F)C(F)(F)F)[C@H]3[C@@H]1CC[C@@H]2O (some centres unmarked)", "cell line": "CAMA-1", "test": "cell growth or viability", "conditions": "7 days", "IC50": "0.0126 µM"}
{"Substance": "curcumin", "cell line": "HCT-116 (KRAS wild type, TP53 wild type)", "test": "cell viability, MTS", "conditions": "72 h", "IC50": "19.6 µM"}
{"Substance": "O=C(NCCCl)Nc1ccc(S(=O)(=O)Oc2cccnc2Br)cc1", "cell line": "MOLM-13", "test": "cell growth or viability, MTT", "conditions": "48 h", "IC50": "2.6 µM"}
{"Substance": "O=C1C(=Cc2ccccc2)CN(C(=O)C#CC(=O)N2CC(=Cc3ccccc3)C(=O)C(=Cc3ccccc3)C2)CC1=Cc1ccccc1", "cell line": "CEM T-lymphocytes", "test": "cell proliferation", "conditions": "3 d", "IC50": "3.35 ± 1.27 µM"}
{"Substance": "Nn1c(SCC(=O)Nc2ccc([N+](=O)[O-])cc2)nnc1-c1ccc(NC(=O)c2cccnc2)cc1", "cell line": "RAW264.7", "test": "reactive oxygen species, inhibitor, fluorescence", "conditions": "LPS-stimulated", "IC50": "3.31 µM"}
{"Substance": "CCCCNc1ccc(C(=O)OCCN(CC)CC)c(OC)c1", "cell line": "ventricular myocytes, R176Q mouse", "test": "Ca2+ spark frequency", "conditions": "2 h, with: isoproterenol 100 nM", "IC50": "0.0372 µM"}
{"note": "For quick reference, copied from above:"}
{"Substance": "COC1=C(OC)[C@H](O)[C@H](C/C=C(\\C)CC/C=C(\\C)CCC=C(C)C)[C@@H](C)C1=O", "cell line": "LNCaP", "test": "cell growth or viability, MTS", "conditions": "72 h", "IC50": "22 µM"}
{"Substance": "CC(C)C[C@H]1NC(=O)[C@H](CC(=O)O)NC(=O)CNC(=O)[C@H](CCCNC(=N)N)NC(=O)[C@H](C)NC1=O", "cell line": "WM-115", "test": "WM-115 cell adhesion, inhibitor", "conditions": "1 h, with: immobilized CagL^E90A", "IC50": "0.88 µM"}
{"Substance": "CC1COc2c(N3CCN(C)CC3)c(F)cc3c(=O)c(C(=O)[O-])cn1c23.Cc1ccc(C(C)C)cc1.[Cl-].[Ru+2] (centres unmarked)", "cell line": "SW480", "test": "cell growth or viability, MTT", "conditions": "96 h", "IC50": "225 µM"}
{"Substance": "O=c1c(/C=C/c2ccccc2Cl)nc2ccccc2n1Cc1ccccc1", "cell line": "HeLa 229", "test": "cell growth or viability, MTT", "conditions": "72 h", "IC50": "> 50 µM"}
